Earlier results that unrelated publications cite.
Each line is one published result; not all experiments were run side by side. Values joined by “and” are separate records of one study, mostly repeats; a detail may differ. Numbers after ± are the reported error.
UniProt Q8NER1, sequence (whole entry, looked up): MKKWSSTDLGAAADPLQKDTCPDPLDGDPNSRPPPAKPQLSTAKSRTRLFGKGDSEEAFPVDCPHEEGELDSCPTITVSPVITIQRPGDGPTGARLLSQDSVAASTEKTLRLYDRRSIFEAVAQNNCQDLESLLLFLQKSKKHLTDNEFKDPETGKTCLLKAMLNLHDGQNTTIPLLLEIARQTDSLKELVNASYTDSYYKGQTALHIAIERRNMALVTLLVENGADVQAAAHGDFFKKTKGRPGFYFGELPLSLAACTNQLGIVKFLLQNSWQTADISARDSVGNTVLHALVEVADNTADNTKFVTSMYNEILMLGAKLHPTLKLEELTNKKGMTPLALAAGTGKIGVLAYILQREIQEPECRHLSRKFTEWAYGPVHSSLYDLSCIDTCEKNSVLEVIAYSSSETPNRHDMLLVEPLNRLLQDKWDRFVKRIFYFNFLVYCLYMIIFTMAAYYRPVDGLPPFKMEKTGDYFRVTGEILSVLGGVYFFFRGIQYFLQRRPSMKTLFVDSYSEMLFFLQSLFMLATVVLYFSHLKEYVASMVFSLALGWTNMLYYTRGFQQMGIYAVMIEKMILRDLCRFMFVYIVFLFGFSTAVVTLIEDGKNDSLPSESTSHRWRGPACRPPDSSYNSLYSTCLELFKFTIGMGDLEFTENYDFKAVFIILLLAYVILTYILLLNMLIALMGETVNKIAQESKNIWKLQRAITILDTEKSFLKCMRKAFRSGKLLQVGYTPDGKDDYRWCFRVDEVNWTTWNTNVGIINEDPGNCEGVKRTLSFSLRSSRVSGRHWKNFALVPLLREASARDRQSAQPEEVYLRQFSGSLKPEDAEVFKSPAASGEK

SMILES	target or system	assay	test system	setting	scale	measurement	value
Cc1ncsc1-c1ccc(CNC(=O)[C@@H]2C[C@@H](O)CN2C(=O)[C@@H](NC(=O)COCCOCCOCCNC(=O)C[C@@H]2N=C(c3ccc(Cl)cc3)c3c(sc(C)c3C)-n3c(C)nnc32)C(C)(C)C)cc1	–	–	mouse	intravenous, 5 mg/kg	–	terminal half-life	62.4 min
O=C(Nc1cnccc1-c1ccc([18F])cc1)c1ccnc(NC(=O)C2CC2)c1	–	PET	wild-type mice	5 min	–	brain uptake	0.92 ± 0.28 SUV
COC1=CC(c2ccc[nH]2)=NC1=CNC1CCCCCC1.Cl	–	metabolic stability	human liver microsomes	–	–	half-life	52.1 min
O=C(O)CCCCC1(N(CC(=O)O)CC(=O)O)CN(CC(=O)O)CCN(CC(=O)O)C1	–	pH-potentiometry, refers to: logK5H	0.15 M NaCl	25 °C	–	protonation constant (log)	2.6
Clc1cc2nc(c1)CNCCNCCNC2.[Cu+2]	–	cyclic voltammetry	DMF	scan rate 100 mV/s	reference: Fc/Fc+	cathodic peak potential	-979 mV
COc1ccc(Nc2nc(Nc3ccc(OCC[18F])cc3)ncc2Br)cc1	–	–	S180 tumour-bearing mice, blood	intravenous, 120 min	–	tissue uptake	0.81 ± 0.01 %ID/g
[Cu+2].c1cc2nc(c1)CNCCNCCNC2	–	cyclic voltammetry	DMF	scan rate 100 mV/s	reference: Fc/Fc+	cathodic peak potential	-995 mV
Oc1cccc(-c2cccc(O)n2)n1.[Cl-].[Cl-].[Ru+2].c1cnc2c(c1)ccc1cccnc12.c1cnc2c(c1)ccc1cccnc12	–	–	CD3OD	basic deprotonated form	–	singlet oxygen quantum yield	0.87
CCCCCCCCCCCCOC(=O)c1ccc(O)cc1	–	octanol-water	–	–	–	logP	7.28
Cc1sc(-c2ccc(C(F)(F)F)cc2)nc1-c1nn[nH]c1C#N	–	–	ZDF rat	10 mg/kg/day, 6 weeks	–	HbA1c change from baseline	2.11 ± 0.16%
CC1(N(CC(=O)O)CC(=O)O)CN(CC(=O)O)CCN(CC(=O)O)C1	–	pH-potentiometry, refers to: logK3H	0.1 M KCl	25 °C	–	protonation constant (log)	3.78
COc1ccc2c(c1)O[B-]1(c3ccccc3)OC(=O)C(c3ccccc3)=N[N+]1=C2C (stereo not drawn)	–	–	buffer with 1.5% acetonitrile	concentration not given, pH 7	–	hydrolysis half-life	18 min
O=C(O)CN1CCN(CC(=O)O)CCN(CC(=O)O)CC1	–	–	0.1 M Me4NCl	–	–	log KH1	13.2
CN1CCN(c2ccc3[nH]c(-c4ccc5[nH]c(-c6ccc(OCCCCNC(=O)c7ccc8c(c7)C7(OC8=O)c8ccc(N(C)C)cc8[Si](C)(C)c8cc(N(C)C)ccc87)cc6)nc5c4)nc3c2)CC1	–	–	PBS with 0.1% SDS	–	–	fluorescence quantum yield	0.524 ± 0.001
CCn1c(=O)c(-c2cc(NC(=O)Nc3ccccc3)c(F)cc2Br)cc2cnc(N)cc21	–	–	patients, plasma	150 mg once daily, median	–	Cmax	1250 ng/mL
C/C(N)=N/C(=N\S(=O)(=O)c1ccc(C(F)(F)F)cc1)N1C[C@H](c2ccccc2)C(c2ccc(Cl)cc2)=N1	–	–	wild-type mouse	–	–	brain to plasma ratio	< 3%
O=C(O)CN1CCOCCN(CC(=O)O)Cc2cccc(n2)C1	–	–	–	0.15 M NaCl	–	sum of log KiH	17.5
O=C(Oc1ccccc1)c1ccc(O)cc1	–	–	–	pH 7.4	–	logD	3.26

SMILES	target or system	assay	test system	setting	scale	measurement	value
Cc1ccc2c(c1)nc(CCN1C(=O)c3cccc4cccc(c34)C1=O)n2-c1ccncc1	–	–	Sprague-Dawley rat	oral, 10 mg/kg	–	MRT(0-t)	90 min
NCc1ccc(Cl)cc1	–	–	–	amine, free unbound form	–	pKa	9.1
Cc1cc(NC(=O)Cn2nnc(-c3cccc(F)c3)n2)n(C2CCCCC2)n1	–	–	mouse, mouse plasma	–	–	plasma stability	unstable
O=C(O)c1cc2cc(O)ccc2n1Cc1ccc(Cl)c(C(F)(F)F)c1	–	–	–	–	–	logP	4.98
CC(C)COC(=O)c1ccc(O)cc1	–	octanol-water	–	–	–	logP	3.2
Ic1cc2nc(c1)CNCCNCCNC2.[Cu+2]	–	cyclic voltammetry	DMF	scan rate 100 mV/s	reference: Fc/Fc+	cathodic peak potential	-907 mV
COc1ccc(CNc2nc([C@H]3CC[C@H](C(=O)O)CC3)nc3sc4ccccc4c23)cc1Cl	–	–	mouse	–	–	half-life	18 min
Oc1c(Cc2c[nH]c3ncccc23)cc(Cl)c2cccnc12	COLO 320 ABCB1-resistant colon	cytotoxicity	–	–	–	IC50	23 µM and 22.5 µM and 21.9 µM
COc1cc2nc(c1)CNCCNCCNC2.[Cu+2]	–	cyclic voltammetry	DMF	scan rate 100 mV/s	reference: Fc/Fc+	anodic peak potential	-906 mV
Cc1cc(-c2ccc(C#N)cc2)cc(C)c1Oc1ccnc(Nc2ccc(C#N)cc2)n1	–	–	human liver microsomes	–	–	intrinsic clearance	47.4 µL/min/mg
FC(F)(F)c1cc2nc(c1)CNCCNCCNC2.[Cu+2]	–	cyclic voltammetry	DMF	scan rate 100 mV/s	reference: Fc/Fc+	anodic peak potential	-823 mV
O=C(O)CN1CCNCCNCCN(CC(=O)O)CC1	–	–	0.1 M KCl	–	–	log KH1	11.4
O=c1ccc(OCCCN2CCCCC2)nn1-c1ccc(Cl)c(Cl)c1	Transient receptor potential cation channel subfamily V member 1 (TRPV1, Homo sapiens, UniProt Q8NER1)	–	–	1.0 µM	–	inhibition	23.3 ± 1.9%
CN1CCN(c2ccc3[nH]c(-c4ccc5[nH]c(-c6ccc(OCCCCNC(=O)c7ccc8c(c7)C(=O)OC87c8ccc(N(C)C)cc8C(C)(C)c8cc(N(C)C)ccc87)cc6)nc5c4)nc3c2)CC1	–	–	PBS	2 µM, together with: 30 µM hairpin DNA	–	fluorescence quantum yield	0.432 ± 0.001
Oc1c(Cc2c[nH]c3ccccc23)cc(Cl)c2cccnc12	COLO 320 ABCB1-resistant colon	cytotoxicity	–	–	–	IC50	4.97 µM and 4.91 µM and 4.74 µM
COc1cccc2c1C(=O)c1c(O)c3c(c(O)c1C2=O)C[C@@](O)(C(=O)CO)C[C@@H]3O[C@H]1C[C@H](N)[C@H](O)[C@H](C)O1	–	–	–	–	–	logP	1.62
CN1CCN(c2ccc3[nH]c(-c4ccc5[nH]c(-c6ccc(OCCCCNC(=O)c7ccc8c(c7)C(=O)OC87c8ccc(N(C)C)cc8[Si](C)(C)c8cc(N(C)C)ccc87)cc6)nc5c4)nc3c2)CC1	–	–	PBS	–	–	fluorescence quantum yield	0.007 ± 0.001
COc1cc(-c2nc3ccccc3s2)cc(CN2CCNCCN(Cc3cc(-c4nc5ccccc5s4)cc(OC)c3O)CC2)c1O	–	–	–	68Ga(III) complex	–	logD	1.24
